Experimental data of several laboratories.
A part holds a random share of what one study measured.

Sample 1
Target: Histone acetyltransferase KAT6A, both winged helices, GST fusion (KAT6A, Homo sapiens, UniProt Q92794, residues 1-181)
Method: protein binding microarray
Molecule type: double-stranded DNA, one strand shown
Matrix: in vitro
Tested at: not given
Setting: 8-mer, flanks averaged, mean of 2 arrays, mostly near background
Reference: not given
Reading: higher = stronger binding
Target sequence (chain): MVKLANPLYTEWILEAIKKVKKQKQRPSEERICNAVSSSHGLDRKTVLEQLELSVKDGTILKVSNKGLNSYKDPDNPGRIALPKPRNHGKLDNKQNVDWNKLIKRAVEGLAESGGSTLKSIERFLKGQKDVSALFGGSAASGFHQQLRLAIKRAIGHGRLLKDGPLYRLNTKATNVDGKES
| Sequence | E-score |
| --- | --- |
| GTCGTGGA | -0.00983 |
| AAACGGGA | 0.225 |
| TAGTCGCA | 0.0713 |
| AAGGATGT | -0.116 |
| ATGGACTG | -0.21 |
| AGTATGGG | -0.273 |
| TCAAGGGA | -0.0622 |
| ATACTGCA | -0.0539 |
| AAACCCTA | -0.278 |
| CATAGAGA | -0.157 |
| ACTTCTTG | -0.101 |
| ACATGCGC | 0.255 |
| TATAGTAA | 0.0351 |
| TAGCCGCA | 0.19 |
| AGCCCTGG | -0.24 |
| CAAGTATG | -0.0422 |
| AACATGAG | 0.0306 |
| TAATGCGA | 0.118 |
| GCGCATTA | 0.21 |
| AAACTTGT | -0.122 |

Sample 2
Target: RNA binding protein fox-1 homolog 2, RRM domain, GST-SBP tag (RBFOX2, Homo sapiens, UniProt O43251-10, residues 100-194)
Method: RNA Bind-n-Seq
Molecule type: RNA
Matrix: in vitro
Tested at: 365 nM
Setting: natural RNA segment, single round, ends assumed
Reference: no-protein control
Reading: higher = stronger binding
Shared flanks, not repeated: GGGAGUUCUACAGUCCGACGAUC … UGGAAUUCUCGGGUGCCAA
Construct (chain): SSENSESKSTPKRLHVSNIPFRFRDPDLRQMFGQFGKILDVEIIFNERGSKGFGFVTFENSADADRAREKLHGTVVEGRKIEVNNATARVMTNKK
| Sequence | RBNS enrichment (R) |
| --- | --- |
| AGAAGUUCUUUCAGAUCACCAAUAUAAAAUUGUUUCCCAAAUAUAUGUGUUUAUCAAAUUUUGACAGGUUUUGAAUGUUCUGUCUAUACCCUAUUUUUAAGAAGUAGGUA | 1.92 |
| GCUCAGCUGUGACUUUGGACUCUGGAGUGGAUGUCCUCAUGUUAGCAAACGUCCACUGUCCUUUCUCUAUCCCCCUCACUCAGCCUACACGUUACUCCAGCGCUACUCUU | 0.627 |
| CCUGUCAGAAAGGUUUUCCUCUGUGCUACCCUUAACUUAGGGAUGAACAGACUAUAACUAGGAAAGGAGGAAAGGUAUCAGGGAUUUUUAAGUCCGUUUAGAGAGCAAAC | 0.396 |
| ACCACUUAACAUCCGUACUGUUUGUUAUAUAUUUCUCCCGACCCUACUCCCCACUCCUGCCACCAAGCACAUCCGGUCUAGGGGUUCCUCACUCUCUUUCAUUUAGCUGC | 0.648 |
| UAAGCUAGGAUAUGAUUAUAUUUCCUAUAUAACUAAAAAUUUUGUUUCAUAAAUUUUAAAAUAAUUAUUUUUGACUAUGAACAUUAGUCCAAAUUUAAUAUUUGACACAG | 0.719 |
| UGGAGACAUAGGGGCUGCUACCAGGGGAGGAACACACCUGGGUGUGGGGCAGCUUCUGGCAUCUUCCCAGGCCCCCUUUCCCAGCCGGGUGUGGAGCUAGGUAGGCUAGG | 0.479 |
| GCUAAAUGAAACAGUGGCUUAAAUAUUUUAAUGGGAAAAGAGAACACAGUGCGUUCCAUAUUGUGAUAAGGUAACGUGAGGUUUUUUUGUUUUGUUUUGUUUUCUUUUUU | 1.06 |
| GCCAGAAGCAUAAAAUGUGAUGAAGGUUUCUCCUGGGAACCUUAUUUUACUCUUCAUUUCAGGGUUUUCUUUUUUUUUUUACCUUCAAAGGUAGACAUUUUGGGAAUCAU | 0.846 |
| UCUUCUUAUCAUUCAGACGUCCCUCCAGAUGCCCAGGGUGAGUGUAACAUUUACCCACAACCUGGCUCGGCACUGGAUGAAAUUCUACAAGGUGAGUGGAGUGUAAAACU | 0.246 |
| GCCCAGGUGGCCUGUGUGAGCGCCACUAGGCACCAGAAGGUGGCGCUCACGCUCUCGUCCUUAGGGAGGAGCUGACUUAGCAGCCCCUCAGCCCAACCCCCUGCUUCCUG | 0.276 |
| GUAAUGAUCUGCAAGUCCCGGAGAGCAACAGCACAGCUCCGCCUGACGCUCUCAUUAAAAUCCAUGCAGCCAAGCUCUGCGCUUUGUAGCAGCCGGCCUUGCAGAGCCUC | 0.388 |
| UUCUGACUUCUGUUUUUACUAAUGGAAGCUUUGCAAAUUGAAUUCUCAGUGAGUUGUAUAUUUAUACACCUGGCUUGAAGCCUUAAUUGUAUAUAAUGAUGCUUUUUAAA | 0.344 |

Sample 3
Target: TAR DNA-binding protein 43, full length, His tag (TARDBP, Homo sapiens, UniProt Q13148, residues 1-414)
Method: RNA Bind-n-Seq
Molecule type: RNA
Matrix: in vitro
Tested at: 20 nM
Setting: 6-mer, flanks averaged, single round
With: 150 mM LiCl
Reference: input library
Reading: higher = stronger binding
| Sequence | 6-mer enrichment (R) |
| --- | --- |
| CUGUUA | 0.978 |
| CCGUGC | 0.927 |
| GUAAGA | 0.959 |
| AGUACC | 0.871 |
| ACAACA | 0.895 |
| GUCUAA | 0.869 |
| ACACUC | 0.877 |
| UUGCUG | 1.07 |
| UUUUGC | 1.24 |
| CGUACU | 0.838 |
| AUCUCG | 0.819 |
| UACGCA | 0.878 |
| AAAGAA | 0.904 |
| UGACUG | 1 |
| UGGCCA | 0.98 |
| ACAGGU | 0.902 |

Sample 4
Target: Centromere-binding protein 1, full length, His-tagged (CBF1, Saccharomyces cerevisiae, UniProt P17106, residues 1-351)
Sequence of UniProt P17106 (whole entry, looked up): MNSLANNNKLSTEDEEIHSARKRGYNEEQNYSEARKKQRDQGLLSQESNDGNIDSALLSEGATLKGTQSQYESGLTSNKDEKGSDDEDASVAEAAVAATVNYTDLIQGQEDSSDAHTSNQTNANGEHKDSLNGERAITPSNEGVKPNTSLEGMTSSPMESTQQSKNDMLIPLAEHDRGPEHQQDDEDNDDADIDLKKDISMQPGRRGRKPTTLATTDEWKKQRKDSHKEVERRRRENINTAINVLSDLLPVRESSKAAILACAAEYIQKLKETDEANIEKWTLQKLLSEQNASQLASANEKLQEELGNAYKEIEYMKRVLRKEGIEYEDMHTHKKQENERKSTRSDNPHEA
Method: competition protein-binding microarray
Molecule type: double-stranded DNA, one strand shown
Matrix: in vitro
Tested at: 2 µM
Setting: whole 60-bp probe, lowest competitor level
With: Pho4 competitor, 0.05 µM
Reading: higher = stronger binding
Shared flanks, not repeated: … GTCTTGATTCGCTTGACGCTGCTG
| Sequence | fluorescence intensity [a.u.] |
| --- | --- |
| TGCGCAACAACTTGAGGCGTGGGTGTATGTCTAGAA | 67.8 |
| AGAGATTTACGATCTAGCGTGGTTACCTAATAACAG | 84.9 |
| AGGATCGTTGGTGCTCTCGTGATGGTTCGGTGGCGG | 133 |
| CAGAGCTGAGCAGGGCACGTGGGTGCCCTCCAGGCT | 880 |
| AAAGCGGTAATTTGTCACATGACTTCACATATCTAT | 3160 |
| GTCTTGTCTCATTTTCACGTGTTCTTCCCCACTTCA | 1080 |
| AGAAACATAGTATGGAACGTGCAAAAGAGTCTGATT | 107 |
| ACCGGCAAAATACTACACGTGCCAGTACGGCACCAA | 1600 |
| GTCTTGTCTCATTTTCACGTGTAGTTCCCCACTTCA | 684 |
| GTTTCGCCAGTTTCACTCATGACAAGTCTGCCAGTT | 71.3 |
| CTCAATTATGGCCTCCACGTGCGGACGGGCGGCTAG | 585 |
| TGCAGCATCCAGCTTCCCGTGTATCCATACCACCCT | 91.8 |
| AAAGCGGTAATTTGTCACTGTACTTCACATATCTAT | 84.2 |
| AAAGCGGTAATTTGTCACGCAACTTCACATATCTAT | 128 |
| GAGTTTTTGCATTTGCACGTGAATTAGTTCTTGGCC | 1320 |
| AAATTACTAAGTTGTCCCGTGGGTGACGCCGTATGA | 99.7 |
| TATGCGCGGATGTGGCACATGCTGTTGAGATCTCAA | 138 |
| TCACCAGCCATTTTTGACATGACAGCTGGACCATTA | 65.6 |
| CTAACGAAGGTTTGTCACTCCACTTACAAGCCAAGT | 88 |
| TGCGCAACAACTTGCTTCGTGGGTGTATGTCTAGAA | 70.1 |
| CGGGGTTAAGTTTGTATTGTGGGTGGCTTGCAGCAG | 73.5 |
| CAGAACGCCGCCTTCCCCGTGCGATGCAGGGTGCTA | 59.9 |
| TGCGCAACAACTTTTCACGTGAGATTATGTCTAGAA | 1200 |
| TGCGCAACAACTTGTCATGTGGGTGTATGTCTAGAA | 179 |

Sample 5
Target: Sal-like protein 4, full length isoform A (SALL4, Homo sapiens, UniProt Q9UJQ4, residues 1-1053)
Sequence of UniProt Q9UJQ4 (whole entry, looked up): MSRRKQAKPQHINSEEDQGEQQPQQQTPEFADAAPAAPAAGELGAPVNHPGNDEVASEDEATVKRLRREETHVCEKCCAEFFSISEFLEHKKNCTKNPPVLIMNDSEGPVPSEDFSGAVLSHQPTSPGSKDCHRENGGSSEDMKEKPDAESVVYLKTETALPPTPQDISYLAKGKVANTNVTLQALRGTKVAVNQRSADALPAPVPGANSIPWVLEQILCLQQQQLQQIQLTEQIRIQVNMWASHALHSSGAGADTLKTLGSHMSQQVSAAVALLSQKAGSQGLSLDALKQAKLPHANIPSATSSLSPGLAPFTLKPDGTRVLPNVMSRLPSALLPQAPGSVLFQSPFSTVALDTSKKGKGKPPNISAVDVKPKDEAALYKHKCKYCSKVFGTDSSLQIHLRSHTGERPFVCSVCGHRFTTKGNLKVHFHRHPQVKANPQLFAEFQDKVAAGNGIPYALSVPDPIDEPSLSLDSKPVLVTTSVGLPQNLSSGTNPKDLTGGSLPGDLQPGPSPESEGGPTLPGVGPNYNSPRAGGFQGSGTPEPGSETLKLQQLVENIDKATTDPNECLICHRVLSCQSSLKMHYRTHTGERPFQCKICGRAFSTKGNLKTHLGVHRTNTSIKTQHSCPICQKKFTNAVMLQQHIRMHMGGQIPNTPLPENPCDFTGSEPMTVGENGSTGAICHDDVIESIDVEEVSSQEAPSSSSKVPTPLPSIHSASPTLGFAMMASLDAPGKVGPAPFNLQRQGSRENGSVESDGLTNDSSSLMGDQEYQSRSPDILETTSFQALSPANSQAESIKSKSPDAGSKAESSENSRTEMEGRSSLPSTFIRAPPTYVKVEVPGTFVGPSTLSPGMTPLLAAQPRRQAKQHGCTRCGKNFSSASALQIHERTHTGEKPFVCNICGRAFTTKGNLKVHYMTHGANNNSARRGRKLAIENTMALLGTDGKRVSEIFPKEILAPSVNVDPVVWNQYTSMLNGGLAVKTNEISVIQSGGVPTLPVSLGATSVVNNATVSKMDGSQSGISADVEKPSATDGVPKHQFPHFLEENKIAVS
Method: universal PBM
Molecule type: double-stranded DNA, one strand shown
Matrix: in vitro
Tested at: 600 nM
Setting: 8-mer, flanks averaged, mean of replicates
Reading: higher = stronger binding
| Sequence | E-score |
| --- | --- |
| CTTTGCCA | 0.0704 |
| TAAGGTCA | 0.0933 |
| ACGAGCGT | -0.176 |
| ACAACGAT | 0.173 |
| CAATGTAC | 0.0569 |
| ACTTGCAT | 0.0757 |
| CAAATAAG | 0.148 |
| GAGGACGC | -0.232 |
| AGATACTG | 0.0672 |
| ACTCTTGC | -0.0184 |
| AGCTCTGA | -0.139 |
| CTTCCTTC | -0.0445 |
| GCACCCCA | -0.294 |
| CCCCTAAG | -0.22 |
| ACTGCCCT | -0.216 |
| GGAAGTGA | -0.0189 |
| GCAGTGAC | -0.221 |
| ATAGTGTA | 0.333 |
| GAGTCAGA | 0.111 |
| GCCGGGGA | -0.303 |
| CAATGGCC | -0.235 |
| ACTCACTC | -0.0664 |
| ACCATTTC | 0.116 |
| CATAGGAA | 0.11 |
| AAAATCTC | 0.125 |

For quick reference, copied from above (sample 4):
| Sequence | fluorescence intensity [a.u.] |
| --- | --- |
| AAAGCGGTAATTTGTCACTGTACTTCACATATCTAT | 84.2 |
| TCACCAGCCATTTTTGACATGACAGCTGGACCATTA | 65.6 |
| CAGAGCTGAGCAGGGCACGTGGGTGCCCTCCAGGCT | 880 |
| TATGCGCGGATGTGGCACATGCTGTTGAGATCTCAA | 138 |
| GAGTTTTTGCATTTGCACGTGAATTAGTTCTTGGCC | 1320 |
| AAAGCGGTAATTTGTCACGCAACTTCACATATCTAT | 128 |
| TGCAGCATCCAGCTTCCCGTGTATCCATACCACCCT | 91.8 |
| ACCGGCAAAATACTACACGTGCCAGTACGGCACCAA | 1600 |
| AGAAACATAGTATGGAACGTGCAAAAGAGTCTGATT | 107 |
| CTAACGAAGGTTTGTCACTCCACTTACAAGCCAAGT | 88 |
| AAAGCGGTAATTTGTCACATGACTTCACATATCTAT | 3160 |
| TGCGCAACAACTTGTCATGTGGGTGTATGTCTAGAA | 179 |
| GTCTTGTCTCATTTTCACGTGTAGTTCCCCACTTCA | 684 |
